Experimental data of several laboratories.
Protocols differ between the studies behind these lines. “And” joins repeats or separate records; there may be more than shown. ± marks the error that the study gave.

`CC[C@H](C)[C@H](NC(=O)[C@H](Cc1ccccc1)NC(=O)[C@H](CCC(=O)O)NC(=O)[C@H](CCCNC(=N)N)NC(=O)[C@H](C)NC(=O)[C@H](C)NC(=O)[C@H](CCC(N)=O)NC(=O)[C@H](CCC(=O)O)NC(=O)[C@H](CCC(=O)O)NC(=O)[C@H](CC(C)C)NC(=O)[C@H](Cc1ccc(O)cc1)NC(=O)[C@H](CO)NC(=O)[C@H](CO)NC(=O)[C@@H](NC(=O)[C@H](CC(=O)O)NC(=O)[C@H](CO)NC(=O)[C@@H](NC(=O)[C@H](Cc1ccccc1)NC(=O)[C@@H](NC(=O)CNC(=O)[C@H](CCC(=O)O)NC(=O)[C@H](C)NC(=O)CCc1cnc[nH]1)[C@@H](C)O)[C@@H](C)O)C(C)C)C(=O)N[C@@H](C)C(=O)N[C@@H](Cc1c[nH]c2ccccc12)C(=O)N[C@@H](CC(C)C)C(=O)N[C@H](C(=O)N[C@@H](CCCNC(=N)N)C(=O)NCC(=O)N[C@@H](CCCNC(=N)N)C(=O)N[C@@H](CCCCNC(=O)COCCOCCNC(=O)COCCOCCNC(=O)CC[C@H](NC(=O)CCCCCCCCCCCCCCCCC(=O)O)C(=O)O)C(=O)NCC(=O)NCC(=O)N[C@@H](CO)C(=O)N[C@@H](CCCCNC(=O)[C@H](CCCCNc1c(NCCCCCN(O)C(=O)CCC(=O)NCCCCCN(O)C(=O)CCC(=O)NCCCCCN(O)C(C)=O)c(=O)c1=O)Nc1c(NCCCCCN(O)C(=O)CCC(=O)NCCCCCN(O)C(=O)CCC(=O)NCCCCCN(O)C(C)=O)c(=O)c1=O)C(=O)O)C(C)C` [zirconium-89 labelled] has a tissue uptake of 0.208 %ID/g and 0.216 %ID/g and 0.224 %ID/g and 0.188 %ID/g and 0.206 %ID/g (ex vivo gamma counting; Sprague-Dawley rat, male, colon; intravenous, 1 nmol, 24 h).
For `CC(C)C[C@@H]1NC(=O)CNC(=O)[C@H](CC(N)=O)NC(=O)[C@H](CCCNC(=N)N)NC(=O)[C@H]([C@@H](C)O)NC(=O)[C@@H]2CSSC[C@@H]3NC(=O)[C@H]([C@@H](C)O)NC(=O)CNC(=O)CNC(=O)[C@H](C(C)C)NC(=O)[C@@H]4CSSC[C@H](NC(=O)[C@H]([C@@H](C)O)NC(=O)[C@H](CSSC[C@H](NC(=O)[C@H](C(C)C)NC(=O)[C@H](CCCCN)NC1=O)C(=O)NCC(=O)N[C@@H](CCC(=O)O)C(=O)N[C@@H]([C@@H](C)O)C(=O)N4)NC(=O)CNC(=O)[C@@H]1CCCN1C(=O)[C@H]([C@@H](C)O)NC(=O)[C@H](CC(N)=O)NC3=O)C(=O)N[C@@H](CO)C(=O)N[C@@H](Cc1c[nH]c3ccccc13)C(=O)N1CCC[C@H]1C(=O)N[C@@H](C(C)C)C(=O)N2`, the remaining peptide was 0% (HPLC; ammonium bicarbonate 0.1 M; 180 µM, 14 days, pH 9.0, 37 °C, deamidation stability).
`CN1CC[C@@H](c2c(O)cc(O)c3c(=O)cc(-c4ccc(C(F)(F)F)cc4Cl)oc23)[C@@H]1CO` — result for “patients with adverse event”: 10% (measured: Chills; relapsed or refractory haematological malignancies; oral, dose not given, all arms).
Under “subjects with drug-related TEAEs”, `C[C@]1(CO)Cc2ncn(-c3ccc(C#N)c(Cl)c3)c2C(=O)O1` is recorded as 14.3% (investigator-assessed; human; 80 mg single dose).
`CNC(=O)c1cc(Oc2ccc(NC(=O)Nc3cc(C(C)(C)C)nn3-c3ccc4ncccc4c3)c(F)c2)ccn1` gave a related SAE of 3% (vision blurred, NCI CTC v3.0; human patients; oral, 150 mg twice daily, tablet, dose at onset).
For `COc1cc2c(Oc3ccc4[nH]c(C)cc4c3F)ccnc2cc1OCC1(N)CC1`, the Hypothyroidism incidence was 25% (paediatric recurrent refractory sarcoma; 8 mg).
`CCc1ccc(CC/C=C/c2ccc3c(c2)C(=O)CC3)cc1` has a Glucose of 6.22 mM (Sprague-Dawley rat, female; oral, 30 mg/kg/day, 14 days).
Under “dose-reducing adverse events”, `CO[C@H]1C[C@@H]2CC[C@@H](C)[C@@](O)(O2)C(=O)C(=O)N2CCCC[C@H]2C(=O)O[C@H]([C@H](C)C[C@@H]2CC[C@@H](OC(=O)NCCOCCOCCOCCOCCOCCOCCOCCOCCC(=O)N3CCc4cc(Cn5nc(-c6ccc7oc(N)nc7c6)c6c(N)ncnc65)ccc4C3)[C@H](OC)C2)C[C@@H](O)[C@H](C)/C=C(\C)[C@@H](O)[C@@H](OC)C(=O)[C@H](C)C[C@H](C)/C=C/C=C/C=C/1C` is recorded as 0% (phase 1 dose escalation, measured: pneumonia; advanced solid tumour patients; intravenous, 8 mg weekly, grade ≥3).
With `c1ccc2c(c1)-c1ccc3ccc4cccc5cc-2c1c3c45` the log K(PDMS-water) was 5.5 ± 0.09 (fresh water; 20 °C, S30-1 sampler, 30 µm).
The drug concentration of `COc1ncccc1-c1cnn2ccc(N3CCN(C(=O)OC(C)C)CC3)nc12` is reported as 370 nM (mouse nerve ligation model, plasma; oral, 3 mg/kg, 120 min after last dose, repeat dosing day 5).
For `COc1ccnc(C(=O)N[C@H]2COC(=O)[C@H](Cc3ccccc3)[C@@H](OC(=O)C(C)C)[C@H](C)OC2=O)c1OCOC(=O)C(C)C`, the DT50 sediment was 0.91 days (Staffordshire loam sediment, aerobic dark; 20 °C).
For `Cc1ncnc2c1ccn2[C@@H]1C[C@H](Oc2cc(C(F)F)c(F)c3c2CNCC3)[C@@H](O)[C@H]1O`, the Nausea incidence was 11% (patients; dose not given, any grade; relative to: patients).
Under “elimination rate constant”, `COc1cc2c(cc1OC)CN(CCc1ccc(NC(=O)c3cccc4c(=O)c5cccc(OC)c5[nH]c34)cc1)CC2` is recorded as 1.92e-05 s⁻¹ (CD-1 mouse, male, lung; intraperitoneal, 0.3 mg/kg).
For `COc1ccc(CCN(C)CCCC(C#N)(c2ccc(OC)c(OC)c2)C(C)C)cc1OC` (stereo not shown), the IC50 was 5.01 µM (Plasmodium falciparum; D10).
`CC1(C)C(C=C(Cl)Cl)C1C(=O)OC(C#N)c1ccc(F)c(Oc2ccccc2)c1` (stereo not shown) has a CLint of 438 µL/min/mg (pooled human liver cytosol).
With `O=C(O)CCCOc1ccc(F)cc1-c1cc(-c2ccccc2C(F)(F)F)n(-c2ccccc2)n1` the blood chemistry was 67 ± 8.4 mg/dL (measured: T-Cho; Crl:CD(SD) rats, female, blood; iv, 25 µg/kg, 1 day).
The IC50 of `CCCC1O[C@@H]2C[C@H]3[C@@H]4CCC5=CC(=O)C=C[C@]5(C)[C@H]4[C@@H](O)C[C@]3(C)[C@]2(C(=O)CO)O1` (stereo partly shown) is reported as 10 µM (Plasmodium falciparum; D10).
Under “treatment-related adverse events”, `CCCCCCCCCCCCCCCC(=O)N[C@@H](CCC(=O)NCCCC[C@H](NC(=O)[C@H](CC(=O)O)NC(=O)[C@H](CO)NC(=O)[C@@H](NC(=O)[C@H](Cc1ccccc1)NC(=O)[C@@H](NC(=O)CNC(=O)[C@H](CCC(N)=O)NC(=O)[C@H](CO)NC(=O)[C@@H](N)Cc1c[nH]cn1)[C@@H](C)O)[C@@H](C)O)C(=O)N[C@@H](CO)C(=O)N[C@@H](CCC(=O)O)C(=O)N[C@@H](Cc1ccc(O)cc1)C(=O)N[C@@H](CC(C)C)C(=O)N[C@@H](CC(=O)O)C(=O)N[C@@H](CO)C(=O)N[C@@H](CCC(=O)O)C(=O)N[C@@H](CCCNC(=N)N)C(=O)N[C@@H](C)C(=O)N[C@@H](CCCNC(=N)N)C(=O)N[C@@H](CC(=O)O)C(=O)N[C@@H](Cc1ccccc1)C(=O)N[C@H](C(=O)N[C@@H](C)C(=O)N[C@@H](Cc1c[nH]c2ccccc12)C(=O)N[C@@H](CC(C)C)C(=O)N[C@@H](CCC(=O)O)C(=O)N[C@@H](C)C(=O)NCC(=O)NCC(=O)O)C(C)C)C(=O)O` is recorded as 72.7% (human, CrCl ≥30 to <45 mL/min; sc, 100 µg single dose).
Under “participants with TEAE leading to death”, `CN1C(=O)[C@@H](NC(=O)c2nnc(Cc3ccccc3)[nH]2)COc2cccnc21` is recorded as 0% (phase I multiple ascending dose; human, male and female; oral, 50 mg, 14 days).

For quick reference, copied from above:
For `COc1cc2c(Oc3ccc4[nH]c(C)cc4c3F)ccnc2cc1OCC1(N)CC1`, the Hypothyroidism incidence was 25% (paediatric recurrent refractory sarcoma; 8 mg).
`CCc1ccc(CC/C=C/c2ccc3c(c2)C(=O)CC3)cc1` has a Glucose of 6.22 mM (Sprague-Dawley rat, female; oral, 30 mg/kg/day, 14 days).
Under “dose-reducing adverse events”, `CO[C@H]1C[C@@H]2CC[C@@H](C)[C@@](O)(O2)C(=O)C(=O)N2CCCC[C@H]2C(=O)O[C@H]([C@H](C)C[C@@H]2CC[C@@H](OC(=O)NCCOCCOCCOCCOCCOCCOCCOCCOCCC(=O)N3CCc4cc(Cn5nc(-c6ccc7oc(N)nc7c6)c6c(N)ncnc65)ccc4C3)[C@H](OC)C2)C[C@@H](O)[C@H](C)/C=C(\C)[C@@H](O)[C@@H](OC)C(=O)[C@H](C)C[C@H](C)/C=C/C=C/C=C/1C` is recorded as 0% (phase 1 dose escalation, measured: pneumonia; advanced solid tumour patients; intravenous, 8 mg weekly, grade ≥3).
